Experimental data collected from several papers.
Each numbered part is a random draw from the data of one study; scales do not carry over between parts.
Chain of UniProt P08631 (whole entry, looked up): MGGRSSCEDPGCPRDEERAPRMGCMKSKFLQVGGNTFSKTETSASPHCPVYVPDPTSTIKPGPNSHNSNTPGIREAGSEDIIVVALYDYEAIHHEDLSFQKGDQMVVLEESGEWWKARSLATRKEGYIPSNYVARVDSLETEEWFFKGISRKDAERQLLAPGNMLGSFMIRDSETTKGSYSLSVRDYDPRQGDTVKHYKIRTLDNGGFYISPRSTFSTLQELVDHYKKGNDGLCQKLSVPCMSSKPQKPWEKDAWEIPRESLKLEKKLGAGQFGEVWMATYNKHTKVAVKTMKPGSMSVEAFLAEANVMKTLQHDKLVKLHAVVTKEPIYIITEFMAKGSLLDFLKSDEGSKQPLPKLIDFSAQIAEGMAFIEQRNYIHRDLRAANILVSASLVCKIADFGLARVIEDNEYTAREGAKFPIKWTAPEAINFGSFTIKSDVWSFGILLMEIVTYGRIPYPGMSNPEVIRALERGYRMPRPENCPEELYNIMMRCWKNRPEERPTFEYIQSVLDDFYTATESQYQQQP
Chain of UniProt O14936 (whole entry, looked up): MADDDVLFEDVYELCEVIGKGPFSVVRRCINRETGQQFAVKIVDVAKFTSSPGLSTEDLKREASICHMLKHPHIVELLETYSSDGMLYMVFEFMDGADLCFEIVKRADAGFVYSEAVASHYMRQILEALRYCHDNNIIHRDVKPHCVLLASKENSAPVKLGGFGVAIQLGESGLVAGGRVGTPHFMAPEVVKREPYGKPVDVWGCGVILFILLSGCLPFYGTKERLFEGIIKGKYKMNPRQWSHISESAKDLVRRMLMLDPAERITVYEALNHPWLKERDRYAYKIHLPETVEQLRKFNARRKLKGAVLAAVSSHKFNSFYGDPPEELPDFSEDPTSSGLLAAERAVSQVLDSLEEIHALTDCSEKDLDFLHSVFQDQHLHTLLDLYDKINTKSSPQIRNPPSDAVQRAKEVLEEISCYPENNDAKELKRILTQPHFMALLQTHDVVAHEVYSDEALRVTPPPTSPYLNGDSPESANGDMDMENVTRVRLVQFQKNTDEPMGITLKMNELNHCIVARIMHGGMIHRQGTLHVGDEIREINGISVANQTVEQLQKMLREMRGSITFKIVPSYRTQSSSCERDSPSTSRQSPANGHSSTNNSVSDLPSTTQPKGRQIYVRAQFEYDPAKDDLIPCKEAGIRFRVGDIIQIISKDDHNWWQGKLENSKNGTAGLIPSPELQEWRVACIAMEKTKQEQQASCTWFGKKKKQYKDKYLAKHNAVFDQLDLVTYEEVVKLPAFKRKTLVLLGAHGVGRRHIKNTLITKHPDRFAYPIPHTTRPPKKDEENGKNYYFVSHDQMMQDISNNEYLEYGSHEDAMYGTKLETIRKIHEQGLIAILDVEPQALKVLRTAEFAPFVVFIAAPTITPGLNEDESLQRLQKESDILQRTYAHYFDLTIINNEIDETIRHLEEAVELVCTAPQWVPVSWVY
Chain of UniProt Q15303 (whole entry, looked up): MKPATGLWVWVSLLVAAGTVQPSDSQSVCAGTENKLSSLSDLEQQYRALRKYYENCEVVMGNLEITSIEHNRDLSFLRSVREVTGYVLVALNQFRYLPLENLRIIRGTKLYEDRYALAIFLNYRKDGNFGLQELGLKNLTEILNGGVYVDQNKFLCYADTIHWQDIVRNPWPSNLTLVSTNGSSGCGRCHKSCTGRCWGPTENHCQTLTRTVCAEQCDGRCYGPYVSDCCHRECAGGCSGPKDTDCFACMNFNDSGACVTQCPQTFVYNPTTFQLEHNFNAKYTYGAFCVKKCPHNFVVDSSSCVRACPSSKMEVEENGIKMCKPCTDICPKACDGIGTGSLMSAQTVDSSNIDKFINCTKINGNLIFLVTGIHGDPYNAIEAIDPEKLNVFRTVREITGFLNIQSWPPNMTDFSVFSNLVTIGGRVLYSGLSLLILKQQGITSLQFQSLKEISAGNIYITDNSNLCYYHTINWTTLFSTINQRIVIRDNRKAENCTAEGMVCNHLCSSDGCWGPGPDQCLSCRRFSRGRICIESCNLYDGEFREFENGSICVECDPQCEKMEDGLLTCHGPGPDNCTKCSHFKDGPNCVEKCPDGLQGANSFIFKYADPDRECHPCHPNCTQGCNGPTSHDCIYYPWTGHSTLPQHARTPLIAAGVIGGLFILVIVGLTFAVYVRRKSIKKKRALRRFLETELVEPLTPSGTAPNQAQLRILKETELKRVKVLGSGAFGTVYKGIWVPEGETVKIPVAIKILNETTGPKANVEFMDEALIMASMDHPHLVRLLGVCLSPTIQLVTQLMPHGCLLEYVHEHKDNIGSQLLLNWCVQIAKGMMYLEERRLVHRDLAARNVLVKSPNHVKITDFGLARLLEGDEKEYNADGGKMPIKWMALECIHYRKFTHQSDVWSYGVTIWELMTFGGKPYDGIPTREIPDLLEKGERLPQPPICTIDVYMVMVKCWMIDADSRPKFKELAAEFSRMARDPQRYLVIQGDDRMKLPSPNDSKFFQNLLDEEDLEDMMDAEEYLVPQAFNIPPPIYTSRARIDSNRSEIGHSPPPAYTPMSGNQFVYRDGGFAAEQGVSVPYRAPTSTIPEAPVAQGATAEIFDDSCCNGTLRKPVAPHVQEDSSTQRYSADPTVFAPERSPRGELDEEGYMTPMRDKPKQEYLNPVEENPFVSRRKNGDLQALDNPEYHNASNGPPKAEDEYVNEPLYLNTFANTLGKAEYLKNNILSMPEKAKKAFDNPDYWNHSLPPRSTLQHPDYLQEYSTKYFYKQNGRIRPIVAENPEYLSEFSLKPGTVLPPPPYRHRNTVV
Chain of UniProt P49840 (whole entry, looked up): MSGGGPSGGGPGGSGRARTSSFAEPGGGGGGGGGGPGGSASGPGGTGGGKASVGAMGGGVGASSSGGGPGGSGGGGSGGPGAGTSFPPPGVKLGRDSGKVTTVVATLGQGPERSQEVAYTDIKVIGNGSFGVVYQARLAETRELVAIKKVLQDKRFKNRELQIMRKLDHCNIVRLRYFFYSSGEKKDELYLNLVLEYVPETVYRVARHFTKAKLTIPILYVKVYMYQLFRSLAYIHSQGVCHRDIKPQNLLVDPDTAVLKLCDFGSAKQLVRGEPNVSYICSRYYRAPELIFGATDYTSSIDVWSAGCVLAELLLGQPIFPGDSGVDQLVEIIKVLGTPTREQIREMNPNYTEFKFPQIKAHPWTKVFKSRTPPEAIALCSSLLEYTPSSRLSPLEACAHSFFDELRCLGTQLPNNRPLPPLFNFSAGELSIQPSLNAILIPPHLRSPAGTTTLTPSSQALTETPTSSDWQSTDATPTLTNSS

Block 1
Target: Beta-1 adrenergic receptor (ADRB1, Homo sapiens, UniProt P08588)
Chain of UniProt P08588 (whole entry, looked up): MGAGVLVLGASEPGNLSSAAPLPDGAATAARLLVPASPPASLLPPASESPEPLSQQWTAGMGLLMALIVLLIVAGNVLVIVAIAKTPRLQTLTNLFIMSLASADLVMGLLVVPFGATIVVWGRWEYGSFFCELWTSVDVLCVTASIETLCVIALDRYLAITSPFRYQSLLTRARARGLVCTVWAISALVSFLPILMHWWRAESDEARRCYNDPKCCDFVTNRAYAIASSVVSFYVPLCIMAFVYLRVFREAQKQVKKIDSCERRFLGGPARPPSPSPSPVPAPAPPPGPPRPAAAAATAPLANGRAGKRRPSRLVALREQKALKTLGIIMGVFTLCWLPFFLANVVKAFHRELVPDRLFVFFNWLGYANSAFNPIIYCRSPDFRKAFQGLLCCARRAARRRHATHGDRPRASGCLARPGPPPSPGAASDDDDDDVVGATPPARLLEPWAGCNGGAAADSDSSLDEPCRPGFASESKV
Action: agonist
Quantity: EC50
Structure (SMILES) = O=C(Nc1nc(-c2ccccc2OC(F)F)cs1)c1cnccn1; value = ≥ 100 µM
Structure (SMILES) = CN1CCN(C)c2cc(-c3ccc(N4CCOCC4)cc3)ncc2C1; value = ≥ 100 µM
Structure (SMILES) = Cn1cc(-c2cnc(Nc3ccc(N4CCOCC4)cc3)c3c2CCO3)cn1; value = ≥ 100 µM
Structure (SMILES) = N#Cc1ccccc1NC(=O)c1sc2cc(F)ccc2c1Cl; value = ≥ 100 µM
Structure (SMILES) = Cc1nnc(CN(C)Cc2ccccc2OCC(O)CN2CCSCC2)o1 (centres unmarked); value = ≥ 100 µM
Structure (SMILES) = Cc1noc2c(-c3cccnc3NCC3CCOCC3)cc(-c3ccccc3)nc12; value = ≥ 100 µM
Structure (SMILES) = Cc1cc2ncn(-c3ccc4ccccc4n3)c2cc1C; value = ≥ 100 µM
Structure (SMILES) = Cc1noc(C)c1-c1cc2cc(CO)oc2c(NC2CCOCC2)n1; value = ≥ 100 µM
Structure (SMILES) = CC1=CCN(Cc2ccc(OCC(O)CN3CCN(C)CC3)cc2)CC1 (centres unmarked); value = ≥ 100 µM
Structure (SMILES) = Cc1noc2c(-c3ccc(N4CCOCC4)cc3)cc(-c3cccnc3)nc12; value = ≥ 100 µM
Structure (SMILES) = Cc1noc2c(-c3cnn(C)c3)cc(-c3cccs3)nc12; value = ≥ 100 µM
Structure (SMILES) = Cc1cnccc1CN(C)Cc1ccc2c(C)cc(=O)oc2c1; value = 1 µM
Structure (SMILES) = CCC(CC)C(=O)Nc1ccc([C@@H](O)[C@H]2COCC(=O)N2)cc1; value = ≥ 100 µM
Structure (SMILES) = CCOc1ccc(C(=O)N2CCc3cc(OC)c(OC)cc3C2COc2ccc3c(C)cc(=O)oc3c2)cc1OCC (centres unmarked); value = ≥ 100 µM
Structure (SMILES) = CCN1C(=O)COC[C@@H]1[C@H](O)c1ccc(NC(=O)c2cccs2)cc1; value = ≥ 100 µM

Block 2
SMILES: C[C@H](c1cccc(C#N)c1)n1cc(Cl)cc(C(N)=O)c1=N
Effect on: cell-free assay
Technique: competition with immobilised ligand
Tested at: 1 µM
Quantity: remaining binding
target = Serine/threonine-protein kinase WNK1 (WNK1, Homo sapiens, UniProt Q9H4A3); value = 89%
target = Ribosomal protein S6 kinase alpha-2, N-terminal kinase domain (RPS6KA2, Homo sapiens, UniProt Q15349); value = 97%
target = Epidermal growth factor receptor (EGFR, Homo sapiens, UniProt P00533, L858R/T790M); value = 89%
target = Tyrosine-protein kinase HCK (HCK, Homo sapiens, UniProt P08631); value = 98%
target = Receptor tyrosine-protein kinase erbB-4 (ERBB4, Homo sapiens, UniProt Q15303); value = 100%
target = Tyrosine-protein kinase Tec (TEC, Homo sapiens, UniProt P42680); value = 100%
target = Dual specificity protein kinase CLK4 (CLK4, Homo sapiens, UniProt Q9HAZ1); value = 100%
target = Serine/threonine-protein kinase RIO1 (RIOK1, Homo sapiens, UniProt Q9BRS2); value = 100%
target = Glycogen synthase kinase-3 alpha (GSK3A, Homo sapiens, UniProt P49840); value = 61%
target = MAP kinase-interacting serine/threonine-protein kinase 1 (MKNK1, Homo sapiens, UniProt Q9BUB5); value = 63%
target = Hepatocyte growth factor receptor (MET, Homo sapiens, UniProt P08581, Y1235D); value = 100%
target = Receptor-type tyrosine-protein kinase FLT3 (FLT3, Homo sapiens, UniProt P36888, ITD); value = 100%
target = Tyrosine-protein kinase ABL1, phosphorylated (ABL1, Homo sapiens, UniProt P00519, Y253F); value = 88%
target = Serine/threonine-protein kinase 36 (STK36, Homo sapiens, UniProt Q9NRP7); value = 75%
target = Serine/threonine-protein kinase Nek9 (NEK9, Homo sapiens, UniProt Q8TD19); value = 79%
target = Peripheral plasma membrane protein CASK (CASK, Homo sapiens, UniProt O14936); value = 82%
target = Serine/threonine-protein kinase VRK2 (VRK2, Homo sapiens, UniProt Q86Y07); value = 79%
target = Serine/threonine-protein kinase TAO2 (TAOK2, Homo sapiens, UniProt Q9UL54); value = 82%

Block 3
Target: Activated CDC42 kinase 1 (TNK2, Homo sapiens, UniProt Q07912)
Chain of UniProt Q07912 (whole entry, looked up): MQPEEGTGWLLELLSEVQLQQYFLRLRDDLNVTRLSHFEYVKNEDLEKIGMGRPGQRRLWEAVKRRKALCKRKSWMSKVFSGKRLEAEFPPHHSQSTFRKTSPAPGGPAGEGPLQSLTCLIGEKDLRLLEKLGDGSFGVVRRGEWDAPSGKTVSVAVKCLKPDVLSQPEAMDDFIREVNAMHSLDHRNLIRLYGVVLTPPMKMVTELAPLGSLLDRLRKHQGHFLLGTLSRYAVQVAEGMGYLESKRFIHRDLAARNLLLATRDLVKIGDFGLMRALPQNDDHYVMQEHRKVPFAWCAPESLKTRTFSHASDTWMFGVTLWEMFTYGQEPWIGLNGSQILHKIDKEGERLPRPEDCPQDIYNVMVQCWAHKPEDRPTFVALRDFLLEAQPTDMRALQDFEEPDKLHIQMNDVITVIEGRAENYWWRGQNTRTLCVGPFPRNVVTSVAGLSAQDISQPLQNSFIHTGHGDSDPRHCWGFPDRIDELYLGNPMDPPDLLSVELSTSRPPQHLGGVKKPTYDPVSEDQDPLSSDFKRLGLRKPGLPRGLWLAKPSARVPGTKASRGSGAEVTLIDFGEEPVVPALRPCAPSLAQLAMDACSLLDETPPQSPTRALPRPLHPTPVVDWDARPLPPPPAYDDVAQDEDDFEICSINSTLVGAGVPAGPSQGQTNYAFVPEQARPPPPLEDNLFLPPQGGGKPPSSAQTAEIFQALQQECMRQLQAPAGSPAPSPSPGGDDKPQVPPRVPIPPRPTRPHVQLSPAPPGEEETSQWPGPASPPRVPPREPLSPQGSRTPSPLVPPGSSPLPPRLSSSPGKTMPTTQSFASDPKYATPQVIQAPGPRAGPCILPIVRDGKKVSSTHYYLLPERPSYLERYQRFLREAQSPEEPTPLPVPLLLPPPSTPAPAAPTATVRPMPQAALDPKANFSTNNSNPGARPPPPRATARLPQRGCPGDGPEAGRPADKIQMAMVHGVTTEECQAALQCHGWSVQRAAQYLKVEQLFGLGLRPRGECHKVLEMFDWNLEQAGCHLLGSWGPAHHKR
Effect on: enzyme activity
Action: inhibitor
Tested at: 0.5 µM
Reference: control
Quantity: remaining activity
SMILES = O=Nc1c(-c2c(O)[nH]c3ccccc23)[nH]c2ccccc12; value = 40.6%
SMILES = O=C(O)/C=C/c1cc(Br)c(Br)c(Br)c1Br; value = 110%
SMILES = CNc1cc2c(Nc3cccc(Br)c3)ncnc2cn1; value = 30.3%
SMILES = CCN(CC)CCCCN1c2ccccc2Oc2ccc(Cl)cc21; value = 94.7%
SMILES = N#CC(c1ccnc(NCCc2cccnc2)n1)c1nc2ccccc2s1 (centres unmarked); value = 42.8%
SMILES = COc1cc2c(N3CCN(C(=O)Nc4ccc(OC(C)C)cc4)CC3)ncnc2cc1OCCCN1CCCCC1; value = 92.7%
SMILES = Clc1ccc(Nc2nnc(Cc3ccncc3)c3ccccc23)cc1; value = 91.7%
SMILES = O=C1NC(=O)/C(=C/c2ccc3c(c2)OC(F)(F)O3)S1; value = 93.2%
SMILES = C[C@@H](N)[C@H]1CC[C@H](C(=O)Nc2ccncc2)CC1; value = 102%
SMILES = CCCCc1c(-c2ccc(O)cc2)[nH]c2nccnc12; value = 49.9%
SMILES = CC(C)n1cnc2c(Nc3cccc(Cl)c3)nc(NCCO)nc21; value = 70.8%
SMILES = COc1cc2c(Nc3ccc(Br)cc3F)ncnc2cc1OCC1CCN(C)CC1; value = 85.4%
SMILES = N#C/C(=C(/N)SC1C=CC=CC1)c1cccc(C(O)c2ccncc2)c1 (centres unmarked); value = 92.6%

Mixed results
SMILES = C[C@@H]1C[C@H]2[C@@H]3CCC4=CC(=O)C=C[C@]4(C)[C@@]3(F)[C@@H](O)C[C@]2(C)[C@@]1(O)C(=O)CO; cell line = A-375; setting = 100 µM, 36 h; quantity = viability; value = 84.3%
